Measured values collected from several papers.
A part holds a random share of what one study measured.

Set 1
Target: Centromere-binding protein 1, full length, His-tagged (CBF1, Saccharomyces cerevisiae, UniProt P17106, residues 1-351)
Sequence of UniProt P17106 (whole entry, looked up): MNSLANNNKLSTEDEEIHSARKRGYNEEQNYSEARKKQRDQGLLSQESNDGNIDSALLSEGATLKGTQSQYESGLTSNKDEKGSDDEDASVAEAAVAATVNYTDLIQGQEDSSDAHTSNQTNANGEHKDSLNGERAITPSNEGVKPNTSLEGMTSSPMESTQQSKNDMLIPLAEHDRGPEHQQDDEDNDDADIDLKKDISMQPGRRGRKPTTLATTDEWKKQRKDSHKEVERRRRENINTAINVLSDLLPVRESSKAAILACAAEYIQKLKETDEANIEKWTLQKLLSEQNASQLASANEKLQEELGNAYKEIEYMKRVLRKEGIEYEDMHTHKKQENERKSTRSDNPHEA
Method: competition protein-binding microarray
Molecule type: double-stranded DNA, one strand shown
Sample: in vitro
Concentration: 2 µM
Setting: whole 60-bp probe, lowest competitor level
Together with: Pho4 competitor, 0.05 µM
Direction: higher = stronger binding
With `GCACCACACAGGTTTTACGTGCGGACAAGACCGTTGGTCTTGATTCGCTTGACGCTGCTG` the fluorescence intensity was 60.6 a.u.
With `CATACCCAACCTTTTCACGTGCCGTAAGATATTTGTGTCTTGATTCGCTTGACGCTGCTG` the fluorescence intensity was 1300 a.u.
`CTTTCCCGATCTTGTCACAACACTTTAGCACATTTGGTCTTGATTCGCTTGACGCTGCTG` gave a fluorescence intensity of 94.2 a.u.

Set 2
Target: Histone acetyltransferase KAT6A, winged helix 1, GST fusion (KAT6A, Homo sapiens, UniProt Q92794, residues 1-85)
Method: protein binding microarray
Molecule type: double-stranded DNA, one strand shown
Sample: in vitro
Concentration: not given
Setting: 8-mer, flanks averaged, mean of 2 arrays, mostly near background
Reference: not given
Direction: higher = stronger binding
Construct (chain): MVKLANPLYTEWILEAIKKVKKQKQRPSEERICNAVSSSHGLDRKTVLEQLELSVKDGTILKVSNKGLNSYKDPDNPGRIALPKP
With `TGGAGTAA` the E-score was -0.133.
For `CACCGTTC`, the E-score was 0.0608.
`AAAACATC` gave an E-score of -0.162.

Set 3
Target: Interferon regulatory factor 7, full length, phosphomimetic (IRF7, Homo sapiens, UniProt Q92985, residues 1-503, S101K/S471D/S472D/S475D/S476D/S477D/S483D/S484D/S487D)
Sequence of UniProt Q92985 (whole entry, unmodified, looked up): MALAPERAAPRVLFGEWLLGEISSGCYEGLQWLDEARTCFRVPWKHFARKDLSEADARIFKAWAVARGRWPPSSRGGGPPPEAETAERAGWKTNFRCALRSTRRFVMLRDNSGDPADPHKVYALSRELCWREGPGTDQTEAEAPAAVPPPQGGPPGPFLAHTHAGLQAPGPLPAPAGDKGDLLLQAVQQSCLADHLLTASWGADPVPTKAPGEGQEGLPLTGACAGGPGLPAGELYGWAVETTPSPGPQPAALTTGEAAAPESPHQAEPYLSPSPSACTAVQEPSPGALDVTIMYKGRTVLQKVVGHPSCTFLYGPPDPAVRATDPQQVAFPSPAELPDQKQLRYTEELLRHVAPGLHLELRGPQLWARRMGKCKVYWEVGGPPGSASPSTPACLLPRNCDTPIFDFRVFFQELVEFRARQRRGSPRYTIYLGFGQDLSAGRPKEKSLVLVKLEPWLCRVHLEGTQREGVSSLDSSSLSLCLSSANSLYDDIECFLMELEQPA
Method: protein-binding microarray
Molecule type: double-stranded DNA, one strand shown
Sample: in vitro
Concentration: 250 nM
Setting: 60-bp whole probe
Together with: salmon DNA 0.4 mg/ml
Reference: random background probes
Direction: higher = stronger binding
`GCCTAGCACGACGGTTTAGGGTATCGGGACGTGCTAGTCTTGATTCGCTTGACGCTGCTG` has a log fluorescence of -0.00522 z-score.
`GCCTAGCACGACTATATCAGACTGGAGACGTGCTAGGTCTTGATTCGCTTGACGCTGCTG` gave a log fluorescence of 0.0614 z-score.
For `GCCTAGCACGACGGTCCCGGACTGGGGACGTGCTAGGTCTTGATTCGCTTGACGCTGCTG`, the log fluorescence was -0.231 z-score.

Other studies, line by line
`PhoQ, residues 284 288 289 292 302 303 SQSLSM` gave a fold induction of 0.774 (PhoP, residues 12 14 15 18 19 STHWV (Escherichia coli, UniProt P23836); Sort-seq, measured: YFP reporter; E. coli; PhoQ-PhoP variant library, together with: 10 µM Mg2+; reference: high Mg2+ state, higher = stronger signaling).

Excerpt of the above (set 1):
`CTTTCCCGATCTTGTCACAACACTTTAGCACATTTGGTCTTGATTCGCTTGACGCTGCTG` gave a fluorescence intensity of 94.2 a.u.
